Literature values as cited in several papers.
Each line is one published result; not all experiments were run side by side. Values joined by “and” are separate records of one study, mostly repeats; a detail may differ. ± gives the spread as reported. Ends that are not written are not given here.

Molecule | assay | system | setting | scale | endpoint | value
NC(=S)NN=Cc1ncccc1N | – | pretreated advanced cancer patients | intravenous, dose not given, trials, single agent | – | stable disease | 16% and 30%
Ac-ELDWDADDIRLQIDNPD-NH2 (N-acetyl, C-amide) | western blot | peptide, Tsk/+ mouse, myocardium | subcutaneous, 1 mg/kg/day, 21 days | – | IRF5 protein level | decreased
C[C@]1(C(=O)[O-])CSC(c2ccc(O)cc2O)=N1.[Na+] | – | bile duct-cannulated rats, non iron-overloaded | oral, 300 µmol/kg, 24 h, monosodium salt | – | iron clearing efficiency | 1.1 ± 0.8%
NS(=O)(=O)NCCNc1nonc1C(=NO)Nc1ccc(F)c(Br)c1 | – | melanoma patients | dose not given, together with: pembrolizumab | baseline: pembrolizumab alone | overall survival hazard ratio | 1.13
CO[C@H]1C[C@@H]2CC[C@@H](C)[C@@](O)(O2)C(=O)C(=O)N2CCCC[C@H]2C(=O)O[C@H]([C@H](C)C[C@@H]2CC[C@@H](O)[C@H](OC)C2)CC(=O)[C@H](C)/C=C(\C)[C@@H](O)[C@@H](OC)C(=O)[C@H](C)C[C@H](C)/C=C/C=C/C=C/1C | – | tumour-bearing mice, blood | steady state | – | blood concentration, maximal antiangiogenic effect | 15 ± 1 ng/mL
CC(C)(O)c1cc2nn(CCS(C)(=O)=O)cc2cc1NC(=O)c1cccc(C(F)(F)F)n1 | TNF-alpha release | healthy male human, whole blood | up to 240 mg daily, 10 days, together with: LPS 0.1 ng/mL for 6 h | – | inhibition | 50%
CCCc1nn(C)c2c(=O)[nH]c(-c3cc(S(=O)(=O)N4CCN(C)CC4)ccc3OCC)nc12 | ambulatory blood pressure monitoring, item: SBP | healthy and hypertensive humans | 100 mg, evening dosing | – | blood pressure reduction | -5.8 mmHg
CCCCCCCCCCCCCCCC(=O)N[C@@H](CCC(=O)NCCCC[C@H](NC(=O)[C@H](C)NC(=O)[C@H](C)NC(=O)[C@H](CCC(N)=O)NC(=O)CNC(=O)[C@H](CCC(=O)O)NC(=O)[C@H](CC(C)C)NC(=O)[C@H](Cc1ccc(O)cc1)NC(=O)[C@H](CO)NC(=O)[C@H](CO)NC(=O)[C@@H](NC(=O)[C@H](CC(=O)O)NC(=O)[C@H](CO)NC(=O)[C@@H](NC(=O)[C@H](Cc1ccccc1)NC(=O)[C@@H](NC(=O)CNC(=O)[C@H](CCC(=O)O)NC(=O)[C@H](C)NC(=O)[C@@H](N)Cc1c[nH]cn1)[C@@H](C)O)[C@@H](C)O)C(C)C)C(=O)N[C@@H](CCC(=O)O)C(=O)N[C@@H](Cc1ccccc1)C(=O)N[C@H](C(=O)N[C@@H](C)C(=O)N[C@@H](Cc1c[nH]c2ccccc12)C(=O)N[C@@H](CC(C)C)C(=O)N[C@H](C(=O)N[C@@H](CCCNC(=N)N)C(=O)NCC(=O)N[C@@H](CCCNC(=N)N)C(=O)NCC(=O)O)C(C)C)[C@@H](C)CC)C(=O)O | – | obese or overweight adults, type 2 diabetes, plasma | – | – | concentration for full glycaemic response | ~15 nM
CC(C)(O)CNc1nc(Nc2ccnc(C(F)(F)F)c2)nc(-c2cccc(C(F)(F)F)n2)n1 | item: 2-hydroxyglutarate | human advanced haematological malignancy | 50 to 650 mg/day | – | median 2-HG reduction | > 90%
Cc1c(O)c(C23CC4CC(CC(C4)C2)C3)cc2c1CC[C@@H]1[C@@H]2CC[C@]2(C)C(=O)CC[C@@H]12 | lipid peroxidation, TBARS | rat brain homogenate | together with: 50 µM ferric ions | – | IC50 | 0.708 µM
CNC(=C[N+](=O)[O-])NCCSCc1ccc(CN(C)C)o1 | – | mice, E0771-GFP or 4T1 tumours | oral, drinking water, 8 mg/kg, 21 days | – | anti-tumour antibody response | increased
C[C@]12CC[C@@H]3c4ccc(O)cc4CC[C@H]3[C@@H]1CC1(CCCC1)C2=O | lipid peroxidation, TBARS | rat brain homogenate | together with: 50 µM ferric ions | – | IC50 | 16.1 µM
CCC1(C)CC(=O)NC1=O (centres unmarked) | protection from seizures | CF-1 mice, 6 Hz corneal stimulation | ip, together with: 22 mA | – | ED50 | 86.9 mg/kg
CN(C)CCCC1(c2ccc(F)cc2)OCc2cc(C#N)ccc21 (centres unmarked) | substrate, item: DCIT | human liver microsomes | – | – | Km | 174 µM
C[C@]12CC[C@@H]3c4cc(C56CC7CC(CC(C7)C5)C6)c(O)cc4CC[C@H]3[C@@H]1CC[C@@H]2O | lipid peroxidation, TBARS | rat brain homogenate | together with: 50 µM ferric ions | – | IC50 | 1.39 µM
CC(C)Cc1ccc(C(C)C(=O)O)cc1 (centres unmarked) | – | postmenopausal women | dose not given, long-term regular use | – | breast cancer risk reduction | 49%
O=C1NC(=O)[C@@H](c2cn3c4c(cccc24)CCC3)[C@@H]1c1c[nH]c2ccccc12 | – | human, hepatocellular carcinoma, high c-Met | concentration not given | – | time to progression | 2.7 months
CC(C)[C@H]1c2ccc(F)cc2CC[C@@]1(CCN(C)CCCc1nc2ccccc2[nH]1)OC(=O)C1CC1.Cl.Cl | – | C57BL/6 wild-type mouse | 12.5 mg/kg, after 20 min harmaline-alone epoch, together with: harmaline | – | tremor reduction | ~60%
CN1CCN(c2ccc(C(=O)Nc3n[nH]c4ccc(Cc5cc(F)cc(F)c5)cc34)c(NC3CCOCC3)c2)CC1 | – | ROS1 NSCLC or NTRK tumour patients | dose not given | – | intracranial response rate | 55%

Molecule | assay | system | setting | scale | endpoint | value
KCNTATCATQRLANFLVHSSNNFGPILPPTNVGSNTY (Pramlintide; not fully specified (C-terminus, bridges); cysteine pairing not given here; sequence looked up) | – | peptide, obese humans | 360 µg twice daily, 6 months, with lifestyle intervention | baseline: placebo | body weight loss | 5 to 6%
CO[C@H]1C[C@@H]2CC[C@@H](C)[C@@](O)(O2)C(=O)C(=O)N2CCCC[C@H]2C(=O)O[C@H]([C@H](C)C[C@@H]2CC[C@@H](OCCO)[C@H](OC)C2)CC(=O)[C@H](C)/C=C(\C)[C@@H](O)[C@@H](OC)C(=O)[C@H](C)C[C@H](C)/C=C/C=C/C=C/1C | – | human, breast cancer | 70 mg weekly | – | response rate | 0%
C[C@]12CC[C@@H]3c4ccc(O)cc4CC[C@H]3[C@@H]1CCC2=O | lipid peroxidation, TBARS | rat brain homogenate | together with: 50 µM ferric ions | – | IC50 | 80.8 µM
Cc1ccc(C(=O)N(CCCN)[C@@H](c2nc3cc(Cl)ccc3c(=O)n2Cc2ccccc2)C(C)C)cc1 | – | human, platinum/taxane refractory ovarian cancer | 18 mg/m2 every 21 days | – | partial response rate | 5%
C[C@@H]1CCO[C@H]2Cn3cc(C(=O)NCc4ccc(F)cc4F)c(=O)c(O)c3C(=O)N12 | item: HIV RNA below 50 copies/mL | treatment-experienced HIV adults | dose not given, 48 weeks, phase III | – | responders | 71%
CC(=O)O[C@H]1Cc2ccccc2N(C(N)=O)c2ccccc21 | – | kindled mice | ip, 100, 200, 300 mg/kg | – | seizure and afterdischarge duration | no effect
bevacizumab | – | human, platinum-resistant recurrent ovarian cancer | dose not given, together with: chemotherapy | – | objective response rate | 27.3%
COc1cc2nccc(Oc3ccc(NC(=O)C4(C(=O)Nc5ccc(F)cc5)CC4)cc3)c2cc1OC | – | human EGFR-mutant NSCLC patients | 40 mg daily, progressed on EGFR TKI, together with: erlotinib | – | response rate | 11%
glutathione | hydroxyl radical scavenging | – | – | – | EC50 | 1230 ± 312 µM
O=C1CC(c2ccc(O)cc2)Oc2cc(O)cc(O)c21 (centres unmarked) | – | Wistar rat, normoglycaemic | oral gavage, 50 mg/kg, single dose | – | blood glucose decrease | ~10%
CC[C@@]1(O)C(=O)OCc2c1cc1n(c2=O)Cc2cc3c(CN(C)C)c(O)ccc3nc2-1 | – | patients with etoposide/carboplatin-refractory pulmonary carcinoid | dose not given | – | 2-year overall survival | < 20%
C[C@]12CC[C@@H]3c4ccc(O)cc4CC[C@H]3[C@@H]1CC[C@H]2O | – | rat transient MCA occlusion | dose not given, 24 h pretreatment | – | ischemic lesion curve AUC | 3.7 ± 1.3%
C[C@]1(c2nc3c(C(N)=O)cccc3[nH]2)CCCN1 | – | human, early-stage TNBC | 50 mg twice daily, then AC, together with: paclitaxel, carboplatin AUC 6 | – | pathological complete response rate | 51%
NCCCC[C@H](NC(=O)[C@@H]1CCCN1C(=O)[C@@H]1CSSC[C@H](NC(=O)CNC(=O)CNC(=O)CN)C(=O)N[C@@H](Cc2ccc(O)cc2)C(=O)N[C@@H](Cc2ccccc2)C(=O)N[C@@H](CCC(N)=O)C(=O)N[C@@H](CC(N)=O)C(=O)N1)C(=O)NCC(N)=O | arterial blood pressure rise | rat | dose not given | baseline: lysine and arginine vasopressin | relative dose for pressor effect | 100 fold
NC(=O)N1c2ccccc2C[C@H](O)c2ccccc21 | protection against seizures | male NMRI mouse | MES-induced seizures | – | ED50 | 27.8 mg/kg
C[C@@H](NCCCc1cccc(C(F)(F)F)c1)c1cccc2ccccc12 | – | human primary hyperparathyroidism | oral, dose not given, normal renal function | – | time to iPTH nadir | 4 h
semaglutide | – | type 2 diabetes patients | 1.0 mg, 40 weeks | baseline: baseline | HbA1c change | -1.86%
NC(=O)N1c2ccccc2C=Cc2ccccc21 | protection against seizures | male NMRI mouse | MES-induced seizures | – | ED50 | 13.5 mg/kg
CN(C)/N=N/c1[nH]cnc1C(N)=O | – | human, metastatic melanoma | dose not given | – | response rate | 7 to 12%

Molecule | assay | system | setting | scale | endpoint | value
CCCNC(=N)NCCC[C@H](N)C(=O)O | eNOS-dependent vasodilation | bovine ciliary artery | together with: bradykinin | – | IC50 | ~10 µM
CCCC(CCC)C(=O)O | protection from seizures | CF-1 mice, 6 Hz corneal stimulation | ip, together with: 22 mA | – | ED50 | 41.5 mg/kg
CC(=O)Oc1ccccc1C(=O)O | – | human colon cancer patients | low dose, cancer detected during treatment | – | reduction in metastasis risk | 83%
CN(C)C(=O)c1cc2cnc(Nc3ccc(N4CCNCC4)cn3)nc2n1C1CCCC1 | – | recurrent glioblastoma patients | dose not given, continued after surgery | – | median progression-free survival | 9.7 weeks
O=c1c(O)c(-c2ccc(O)c(O)c2)oc2cc(O)ccc12 | hydroxyl radical scavenging | – | – | – | IC50 | 3 to 5 µM
O=C(O)/C=C/c1ccc(O)c(O)c1 | superoxide scavenging, PMS-NADH system | – | – | – | IC50 | 51 µM
CN1CCC(c2ccccc2CC(C)(C)Nc2nc(N3CCOCC3)nc(-n3c(C(F)F)nc4ccccc43)n2)CC1 | basophil activation, inhibitor, item: CD63 | healthy human volunteers, plasma | oral, together with: ex vivo stimulation | – | EC90 | 0.009 µM
CC(C)C[C@H]1C(=O)N2CCC[C@H]2[C@]2(O)O[C@](NC(=O)[C@@H]3C=C4c5cccc6[nH]c(Br)c(c56)C[C@H]4N(C)C3)(C(C)C)C(=O)N12 | – | human type 2 diabetes patients | dose not given | – | reduction in cardiovascular events | 40%
CN1CCN(CCOc2cc(OC3CCOCC3)c3c(Nc4c(Cl)ccc5c4OCO5)ncnc3c2)CC1 | – | human platinum-sensitive ovarian cancer | dose not given, together with: paclitaxel and carboplatin | – | median progression-free survival | 8.3 months
CN(C)c1ccc2nc3ccc(=[N+](C)C)cc-3sc2c1 | PHF core disruption | purified AD brain PHFs | – | – | effective concentration | 0.16 µmol/L
CC1=C(/C=C/C(C)=C/C=C/C(C)=C\C(=O)O)C(C)(C)CCC1 | – | human, high-risk neuroblastoma | oral, 80 mg/m2 twice daily, 2 weeks monthly for 6 months, after consolidation | – | 3-year event-free survival | 45%
CN[C@H]1C(=O)N[C@@H]2Cc3ccc(cc3)Oc3cc4cc(c3O[C@@H]3O[C@H](C(=O)O)[C@@H](O)[C@H](O)[C@H]3NC(=O)CCCCCCCCC(C)C)Oc3ccc(cc3Cl)[C@@H](O)[C@@H]3NC(=O)[C@H](NC(=O)[C@@H]4NC(=O)[C@@H](NC2=O)c2cc(cc(O)c2Cl)Oc2cc1ccc2O)c1ccc(O)c(c1)-c1c(O[C@H]2O[C@H](CO)[C@@H](O)[C@H](O)[C@@H]2O)cc(O)cc1[C@@H](C(=O)NCCCN(C)C)NC3=O | – | human, ABSSSI, microbiological ITT population | dose not given, 48 to 72 h, double-dose regimen | – | clinical response rate | 98.6%
C[C@@]12CC=C3c4ccc(O)cc4CC[C@@H]3[C@H]1CC[C@H]2O | lipid peroxidation, TBARS | rat brain homogenate | together with: 50 µM ferric ions | – | IC50 | 3.13 µM
Nc1nc(Cl)nc2c1ncn2[C@H]1C[C@H](O)[C@@H](CO)O1 | – | paediatric AML patients | dose not given, before induction therapy | – | partial remission rate | 32%
CC(=O)O[C@H]1CC[C@@]2(C)C(=CC[C@@H]3[C@@H]2CC[C@]2(C)C(c4cccnc4)=CC[C@@H]32)C1 | – | human mCRPC, post-chemotherapy | dose not given, together with: prednisone | baseline: prednisone alone | overall survival gain | 3.9 months
Clc1ccc2c(N3CCN(CCCN4CCN(c5ccnc6cc(Cl)ccc56)CC4)CC3)ccnc2c1 | – | mouse malaria model | oral, single dose | – | curative dose | 16 mg/kg
COc1cccc2c1C(=O)c1c(O)c3c(c(O)c1C2=O)C[C@@](O)(C(=O)CO)C[C@@H]3O[C@H]1C[C@H](N)[C@H](O)[C@H](C)O1 | – | mouse brain metastasis model | dose not given, highest drug concentration subset | – | brain metastases with cytotoxicity | 10%
insulin | disulfide reduction | – | pH neutral, together with: dithiothreitol | – | second-order rate constant | 5 M⁻¹ s⁻¹
